Measurements pooled from the literature.
Lines come from different studies, so protocols differ. ± gives the spread as reported.

C[C@H](NC(=O)[C@H](CC(N)=O)NC(=O)[C@H](Cc1ccc(O)cc1)NC(=O)[C@H](CCC(=O)O)NC(=O)[C@H](CS)NC(=O)[C@H](CC(=O)O)NC(=O)[C@H](C)N1C/C=C/CCC(=O)N[C@@H]([C@@H](C)O)C(=O)N[C@@H](C)C1=O)C(=O)N[C@@H](CCCNC(=N)N)C(N)=O  inhibition (HIF-1α; VEGF transcription, qRT-PCR, refers to: VEGF mRNA; HeLa; 1 µM, 12 h, with: deferoxamine-mimicked hypoxia): 45 ± 8%
COC(=O)C1CCN(CCCN(C[C@H]2O[C@@H](n3cnc4c(N)ncnc43)[C@H](O)[C@@H]2O)C2CCN(Cc3nc4cc(NC(=O)C(C)(C)C)ccc4[nH]3)CC2)CC1  H3K79me2 level ratio (human DOT1L R231Q; inhibitor, western blot, refers to: H3K79me2 over histone H3; H460 DOT1L R231Q; concentration not given; relative to: cpd over SGC0946): 1.35
CC(=O)OC(CC(=O)O)C[N+](C)(C)C (stereo not drawn)  EC50 (rhodopsin wild type-Rluc fusion; reporter gene; HEK293; 24 h): 3400 nM
N#Cc1c(-c2ccc(F)cc2)c(-c2ccc(F)cc2)nn(Cc2nn[nH]n2)c1=O  minimum effective concentration (tubulin (bovine); aberrant polymer assembly, turbidity; 37 °C): 2 µM
GKKVITAFAEGLK  koff (single-chain TCR 3.L2 mouse; surface plasmon resonance; peptide; with: pMHC-II monomer): 1.12 to 4.61 s⁻¹
CC(C)N(CCC1CC2CN(Cc3ccc(C#N)cc3)CC2C1)C[C@H]1O[C@@H](n2cnc3c(N)ncnc32)[C@H](O)[C@@H]1O (stereo partly drawn)  H3K79me2 level ratio (human DOT1L R231Q; inhibitor, western blot, refers to: H3K79me2 over histone H3; H460 DOT1L R231Q; concentration not given; relative to: cpd over SGC0946): 2.07
OC[C@H]1O[C@@H](Oc2cc3c(O)cc(O)cc3[o+]c2-c2cc(O)c(O)c(O)c2)[C@H](O)[C@@H](O)[C@@H]1O.[Cl-]  CD value (NAD(P)H quinone oxidoreductase, mouse; enzyme induction, inducer; Hepa-1c1c7; concentration doubling activity): > 20 µM
COc1cc(C=O)ccc1O  lowest inhibitory concentration (UGT (rat); 4-MU glucuronidation, inhibitor; rat kidney microsomes): ≥ 0.1 µM
GKKVITAFVEGLK  relative concentration for IL-2 production (3.L2 T cell receptor; agonist; peptide, 3.L2.12 T cell hybridoma; concentration not given; relative to: over Hb(64-76) peptide): 10 to 100 fold
C=CCc1ccc(O)c(OC)c1  inhibition (anti-eugenol mouse monoclonal antibody; binding, indirect competitive ELISA; 100 ng/mL): 77%
CCN(CC)CCCN(C[C@H]1O[C@@H](n2cnc3c(N)ncnc32)[C@H](O)[C@@H]1O)C1CCN(Cc2nc3ccc(NC(=O)C(C)(C)C)cc3[nH]2)CC1  H3K79me2 level ratio (human DOT1L R231Q; inhibitor, western blot, refers to: H3K79me2 over histone H3; H460 DOT1L R231Q; concentration not given; relative to: cpd over SGC0946): 1.67
O=c1ccc2ccccc2o1  Hill coefficient (CYP2A6 human; 7-hydroxylation, substrate; human liver microsomes; CYP2A6 added 433 pmol/mg, ratio 1): 1.36 ± 0.48
COC(=O)c1ccc(O)c(O)c1  CD value (NAD(P)H quinone oxidoreductase, mouse; enzyme induction, inducer; Hepa-1c1c7; concentration doubling activity): > 20 µM
O=C(NO)c1ccc(NC(=O)[C@@H](NS(=O)(=O)c2ccc3ccccc3c2)c2ccccc2)cc1  IC50 (HDAC (HeLa nuclear extract); enzyme activity, inhibitor): 23.5 ± 1.7 nM
CC(C)(C)C(=O)Nc1ccc2nc(CN3CCC(N(CC(=O)N4CCCC4)C[C@H]4O[C@@H](n5cnc6c(N)ncnc65)[C@H](O)[C@@H]4O)CC3)[nH]c2c1  H3K79me2 level ratio (human DOT1L R231Q; inhibitor, western blot, refers to: H3K79me2 over histone H3; H460 DOT1L R231Q; concentration not given; relative to: cpd over SGC0946): 1.23
CN1CC[C@H](c2c(O)cc(O)c3c(=O)cc(-c4ccccc4Cl)oc23)[C@H](O)C1  Pearson correlation coefficient (CHERP and Ser2-phosphorylated RNA polymerase II, human; colocalization, immunofluorescence; HEK293 transfected with HA-CHERP; 2 µM, 3 h): 0.22
COc1c(-c2ccc(O)c(O)c2)oc2cc(O)cc(OC)c2c1=O  CD value (NAD(P)H quinone oxidoreductase, mouse; enzyme induction, inducer; Hepa-1c1c7; concentration doubling activity): > 20 µM
CC(C)(C)c1cc(C(C)(C)C)c(NC(=O)c2c[nH]c3ccccc3c2=O)cc1O  CFTR activity (CFTR R352Q human; short-circuit current, potentiator; CFBE; 14.44 µM, with: forskolin 20 µM; relative to: PKA-activated wild type): 44.2 ± 3.3%

Repeated from above:
CC(C)N(CCC1CC2CN(Cc3ccc(C#N)cc3)CC2C1)C[C@H]1O[C@@H](n2cnc3c(N)ncnc32)[C@H](O)[C@@H]1O (stereo partly drawn)  H3K79me2 level ratio (human DOT1L R231Q; inhibitor, western blot, refers to: H3K79me2 over histone H3; H460 DOT1L R231Q; concentration not given; relative to: cpd over SGC0946): 2.07
OC[C@H]1O[C@@H](Oc2cc3c(O)cc(O)cc3[o+]c2-c2cc(O)c(O)c(O)c2)[C@H](O)[C@@H](O)[C@@H]1O.[Cl-]  CD value (NAD(P)H quinone oxidoreductase, mouse; enzyme induction, inducer; Hepa-1c1c7; concentration doubling activity): > 20 µM
